Measurements pooled from the literature.
Numbered parts are unrelated; each lists some results of a single study. Substitutions count along the parent as printed.
UniProt P11229, sequence (whole entry, looked up): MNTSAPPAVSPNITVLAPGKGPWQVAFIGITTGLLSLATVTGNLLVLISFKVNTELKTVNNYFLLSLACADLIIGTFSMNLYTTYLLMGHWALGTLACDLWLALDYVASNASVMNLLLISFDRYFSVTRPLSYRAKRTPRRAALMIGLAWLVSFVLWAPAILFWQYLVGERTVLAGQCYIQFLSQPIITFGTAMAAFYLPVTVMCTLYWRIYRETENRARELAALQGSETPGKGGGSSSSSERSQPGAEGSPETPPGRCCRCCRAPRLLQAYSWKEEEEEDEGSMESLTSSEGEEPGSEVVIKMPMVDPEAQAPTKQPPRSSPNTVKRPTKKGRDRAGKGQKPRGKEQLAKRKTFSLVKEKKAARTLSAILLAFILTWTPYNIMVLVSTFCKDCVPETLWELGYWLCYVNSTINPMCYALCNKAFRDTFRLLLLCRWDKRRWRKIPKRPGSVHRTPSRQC
UniProt P29376, sequence (whole entry, looked up): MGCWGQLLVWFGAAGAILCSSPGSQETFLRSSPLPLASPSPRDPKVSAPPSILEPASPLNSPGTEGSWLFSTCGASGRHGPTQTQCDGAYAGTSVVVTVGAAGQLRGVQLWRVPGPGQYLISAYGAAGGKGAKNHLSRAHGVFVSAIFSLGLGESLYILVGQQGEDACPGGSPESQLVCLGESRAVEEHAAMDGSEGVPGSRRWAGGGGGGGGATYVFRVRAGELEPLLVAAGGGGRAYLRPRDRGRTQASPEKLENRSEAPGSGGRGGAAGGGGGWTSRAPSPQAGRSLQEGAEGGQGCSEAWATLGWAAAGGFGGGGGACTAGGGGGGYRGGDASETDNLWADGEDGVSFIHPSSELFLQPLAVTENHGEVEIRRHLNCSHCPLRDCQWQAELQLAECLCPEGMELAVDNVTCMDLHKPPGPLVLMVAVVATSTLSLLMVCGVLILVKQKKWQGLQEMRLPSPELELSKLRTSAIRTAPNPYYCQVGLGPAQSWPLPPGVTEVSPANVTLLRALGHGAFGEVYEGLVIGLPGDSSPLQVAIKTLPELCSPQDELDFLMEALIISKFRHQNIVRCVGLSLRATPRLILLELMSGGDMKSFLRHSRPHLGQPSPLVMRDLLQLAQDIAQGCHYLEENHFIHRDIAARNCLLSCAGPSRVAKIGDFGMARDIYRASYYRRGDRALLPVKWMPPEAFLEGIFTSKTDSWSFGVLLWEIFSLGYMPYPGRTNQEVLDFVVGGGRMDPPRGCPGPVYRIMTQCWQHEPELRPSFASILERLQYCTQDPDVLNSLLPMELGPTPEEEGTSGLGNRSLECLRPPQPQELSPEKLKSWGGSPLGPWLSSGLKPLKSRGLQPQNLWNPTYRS

Block 1
Target: CCNA2, cyclin fold, Cln2 fusion (human)
Technique: yeast growth competition, sequencing
Medium: yeast
Notes: strong parent motif
Reference: not given
Direction: higher = stronger binding
Measurement: normalised enrichment score
Starting sequence: viral docking peptide; TSVRRALFTGGSD
TSYRRALFTGGSD [V3Y]: 4.01
TSVRRALFTGLSD [G11L]: 6.18
TSVRRALFFGGSD [T9F]: 6.68
TSVRRALFTGGED [S12E]: 6.02
TSVRRALFEGGSD [T9E]: 5.75
TSSRRALFTGGSD [V3S]: 3.87
TSHRRALFTGGSD [V3H]: 2.13
TSVRRALTTGGSD [F8T]: 0.0408
TSVRQALFTGGSD [R5Q]: 1.67
TSVRRALETGGSD [F8E]: -0.0546
TSVARALFTGGSD [R4A]: 4.28
TSVRRALFTGGTD [S12T]: 6.3
TSVRSALFTGGSD [R5S]: 0.409
TSVRRALFTGYSD [G11Y]: 5.87
TSVRRAGFTGGSD [L7G]: 0.42
TSVRRALFTMGSD [G10M]: 5.87
TSVRRKLFTGGSD [A6K]: 6.16
TSVRRALFTKGSD [G10K]: 6.2
TSVRRALFTGGPD [S12P]: 6.36
TSNRRALFTGGSD [V3N]: 0.147
TSVRRELFTGGSD [A6E]: 5.45
TSFRRALFTGGSD [V3F]: 4.93
TSVRHALFTGGSD [R5H]: 1.26
TSVRRALFLGGSD [T9L]: 6.18
TSCRRALFTGGSD [V3C]: 6.14

Block 2
Target: Max-binding protein MNT, bHLH-zipper, MAX partner unstated (MNT, Homo sapiens, UniProt Q99583, residues 220-300)
Technique: protein-binding microarray
Molecule type: double-stranded DNA, one strand shown
Medium: in vitro
Concentration: not given
Notes: k-mer, scored over probes, only values ≥0.25
Direction: higher = stronger binding
Measurement: E-score
Target sequence (chain): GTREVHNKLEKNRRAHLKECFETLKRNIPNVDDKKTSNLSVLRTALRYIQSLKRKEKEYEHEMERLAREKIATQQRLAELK
CACGAGGC: 0.451
ACATGCTA: 0.367
CGCGTGCA: 0.463
CACCTGGC: 0.334
AGACATGC: 0.378
ACATGTCG: 0.283
AGGTGGCG: 0.335
ACAGCATG: 0.428

Block 3
Target: RING finger protein unkempt homolog, zinc fingers 1-6, SBP tag (UNK, Homo sapiens, UniProt Q9C0B0, residues 30-357)
UniProt Q9C0B0, sequence (30-357, looked up): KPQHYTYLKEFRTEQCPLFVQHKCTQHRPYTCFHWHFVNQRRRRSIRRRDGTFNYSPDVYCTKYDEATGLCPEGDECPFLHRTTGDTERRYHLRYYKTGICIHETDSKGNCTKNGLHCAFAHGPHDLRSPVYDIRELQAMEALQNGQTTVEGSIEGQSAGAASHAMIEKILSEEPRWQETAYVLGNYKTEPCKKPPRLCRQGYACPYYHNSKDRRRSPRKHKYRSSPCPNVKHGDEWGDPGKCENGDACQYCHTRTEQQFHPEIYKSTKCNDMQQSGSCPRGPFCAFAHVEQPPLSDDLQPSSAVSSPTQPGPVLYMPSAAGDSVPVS
Technique: RNA Bind-n-Seq
Molecule type: RNA
Medium: in vitro
Concentration: 100 nM
Notes: RNA with constant flanks, vertebrate orthologous sites, ends assumed
Reference: input RNA pool
Direction: higher = stronger binding
Measurement: bound/input enrichment
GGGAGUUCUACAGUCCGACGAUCAGCCUCCCUUCUGCCCCAAAAAUAGAACUUUUUAAAAUUGUGUUGCCACUUCUAAAAAUUUAGCAAUAUUCAAAUAAAACACUAAUGAAGUAAGAAAUUUUGCUCGAUGUGUUGCAAACCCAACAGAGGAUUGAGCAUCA: 2.38 ratio
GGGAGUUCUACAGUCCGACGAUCAAUCAAUAGGAUUACAUAAUACUAAAGUUGCAGUUGAAAGGAUAUCCAAGUAUGUGUUCGUAGUUACUGAAAGAAUUAUAGCUGUUAUUGCCUUGUAUUUAUAGCCCUUGUUUCAGGUUCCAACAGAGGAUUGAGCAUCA: 0.795 ratio
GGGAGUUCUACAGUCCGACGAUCUGGCCUUGAGGUGUGGGGCACUGCUGGCUGCUUAGCGUUGUUAAAUUUGUGACCUUGACAUCAUAGAUAGGCUUGUGGUGUUUUUUUAAUUUAAAGAUAUUAAGACUUAAUUCACUAAAACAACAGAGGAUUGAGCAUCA: 0.724 ratio
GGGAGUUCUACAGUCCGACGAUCGAGCUAAAGGAGUUAGCAUCUUUAUUUUUGUAUCAAAGAUAAAGGUUAUUUUGAAAUUAUUAGGAUUUUUACACAACUCUGAAAUCUGUUGCUUUUUGUAUAAACAAAUUGUUUGAUCUUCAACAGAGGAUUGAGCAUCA: 1.24 ratio
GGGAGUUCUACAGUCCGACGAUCUGUCUGCCUCAUUCUAAAAUUUACAUAGUAGACCAUUUGUCAUCCAUGCUGUCCCACAAAUAGUUUUUUGUUUACGAUUUAUGACAGGUUUAUGUUACUUCUAUUUGAAUUUCUAUAUUUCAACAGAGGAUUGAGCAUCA: 1.61 ratio
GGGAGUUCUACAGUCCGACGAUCCUACGUCCCCUGGGACGGGACGGAUGUUUUUUUAUGUUUGGAGAUUUAAACUUGUGCUUGUAGAAGACUGUACCCUUUUUGUCUUUUUUUUUUUUUUUUGGAACCACCAACCUCCACCUCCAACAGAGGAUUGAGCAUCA: 1.31 ratio
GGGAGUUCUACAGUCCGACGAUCCUGUUGUUAAGCACUGUGUUCCAGACCAUGUCUGACUUUAGUGUAACCUAGGAGAUUUUAUAGUUUUAUUUUAAUGAAAAACCCUGAUUGGUGCAGAACAGUGGGAAGAGCAGUGUCUUUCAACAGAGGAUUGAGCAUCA: 3.1 ratio
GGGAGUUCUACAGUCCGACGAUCAGUUUGUAUGUACAUUAUUCACAUUCCUCUCUGUUGUGUUUUGGGGGAAAAAAAGACAUUUUAGCCUUUUUUAAGGUUAUUGAUUUAAUUUCAUGUUAUUUGGUUGCAUGAAGUUGCCCUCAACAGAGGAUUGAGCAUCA: 0.393 ratio

Block 4
Target: ATF3, bZIP domain (human)
Technique: DHFR protein complementation
Medium: yeast
Notes: single substitutions, most at no-binding floor
Reference: wild-type JUN-FOS pair
Direction: higher = stronger binding
Measurement: binding fitness
Starting sequence: JUN, bZIP domain (human); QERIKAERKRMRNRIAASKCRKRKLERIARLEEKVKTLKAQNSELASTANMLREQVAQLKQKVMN; partner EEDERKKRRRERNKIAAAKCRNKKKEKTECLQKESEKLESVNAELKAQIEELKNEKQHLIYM
E54V: -0.395 natural log
E33L: -0.143 natural log
Q41P: -1.48 natural log
E44H: -0.219 natural log
R30L: 0.0116 natural log
Q41H: -0.314 natural log
E44R: -0.187 natural log
N42P: -1.36 natural log

Further values, each from its own experiment
O=C(O)c1ccc2c3c1cccc3c(=O)n1c3ccccc3nc21
remaining activity (LTK (Homo sapiens, UniProt P29376); enzyme activity, inhibitor, radiometric; 0.5 µM): 72.7%

N#CN1CC[C@H](C(=O)Nc2nc3c(s2)CN(C(=O)CN=[N+]=[N-])CC3)C1
inhibition (CHRM1 (Homo sapiens, UniProt P11229); ligand displacement; 10 µM): 7.58%

For quick reference, copied from above (block 1):
TSVRRALETGGSD [F8E]: -0.0546
TSVARALFTGGSD [R4A]: 4.28
TSVRRALFTGGTD [S12T]: 6.3
